Published values gathered from unrelated publications.
Parts stem from different laboratories: compare values within a part only.

Study 1
Target: Histone acetyltransferase KAT6A, winged helix 1, GST fusion (KAT6A, Homo sapiens, UniProt Q92794, residues 1-85)
Technique: protein binding microarray
Form: double-stranded DNA, one strand shown
Matrix: in vitro
Tested at: not given
Setting: 8-mer, flanks averaged, mean of 2 arrays, mostly near background
Relative to: not given
Reading: higher = stronger binding
Endpoint: E-score
Construct (chain): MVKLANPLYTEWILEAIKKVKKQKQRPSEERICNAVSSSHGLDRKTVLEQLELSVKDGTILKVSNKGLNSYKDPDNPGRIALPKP
CCCTCTCC: -0.107
GCAAATGC: 0.0602
GCGCTGCA: 0.297
TGCCTCCA: -0.0562
AGCTCTCC: -0.083
TACGGCGA: 0.416

Study 2
Target: Centromere-binding protein 1, full length, His-tagged (CBF1, Saccharomyces cerevisiae, UniProt P17106, residues 1-351)
Chain of UniProt P17106 (whole entry, looked up): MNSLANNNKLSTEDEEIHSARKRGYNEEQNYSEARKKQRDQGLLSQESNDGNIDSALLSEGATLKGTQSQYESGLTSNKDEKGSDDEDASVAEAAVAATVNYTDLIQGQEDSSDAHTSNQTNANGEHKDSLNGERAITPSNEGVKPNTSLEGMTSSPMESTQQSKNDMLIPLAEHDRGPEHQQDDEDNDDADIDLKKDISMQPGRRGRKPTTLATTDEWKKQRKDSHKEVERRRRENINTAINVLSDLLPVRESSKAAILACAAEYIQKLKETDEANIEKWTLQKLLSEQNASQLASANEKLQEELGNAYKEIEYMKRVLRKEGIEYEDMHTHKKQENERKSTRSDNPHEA
Technique: competition protein-binding microarray
Form: double-stranded DNA, one strand shown
Matrix: in vitro
Tested at: 2 µM
Setting: whole 60-bp probe, lowest competitor level
Together with: Pho4 competitor, 0.05 µM
Reading: higher = stronger binding
Endpoint: fluorescence intensity
Shared flanks, not repeated: … GTCTTGATTCGCTTGACGCTGCTG
GGCAGGACGGACTTCCACGTGGAACTTAGGCATTCC: 318 a.u.
TCTAGTAGGTGCGCCAGCGTGCGATGATGTGATGAG: 75.6 a.u.
TTTAGTCGATACCAACACGTGGAACAATACTCAAAT: 723 a.u.
TGCGCAACAACTTGCCAAGTGGGTGTATGTCTAGAA: 63.1 a.u.
CGGGGTTAAGTTTGTAAAGTGGGTGGCTTGCAGCAG: 66 a.u.

Study 3
Target: Interferon regulatory factor 5, full length, phosphomimetic (IRF5, Homo sapiens, UniProt Q13568-2, residues 1-514, K96S/S451D/S453D/S456D/S462D)
Technique: protein-binding microarray
Form: double-stranded DNA, one strand shown
Matrix: in vitro
Tested at: 250 nM
Setting: 60-bp whole probe
Together with: salmon DNA 0.4 mg/ml
Relative to: random background probes
Reading: higher = stronger binding
Endpoint: log fluorescence
Shared flanks, not repeated: GCCTAGCAC … GTCTTGATTCGCTTGACGCTGCTG
TATATATCCATTATAGATGAGTGCTAG: 0.524 z-score
GACGAAATCGGGACTGGAGACGTGCTA: 0.32 z-score
TTAGGTTTCGACACTGGGTCAGTGCTA: 5.98 z-score
TTAGTACTGGACACTGGGTTAGTGCTA: 0.0234 z-score
TCAATTTTCATTTTGTGACTGTGCTAG: 2.14 z-score
GACGGACTGGGGAATGGGGACGTGCTA: -0.45 z-score

Mixed results
PhoQ, residues 284 288 289 292 302 303 SNGLAW  fold induction (PhoP, residues 12 14 15 18 19 NYFRM (Escherichia coli, UniProt P23836); Sort-seq, measured: YFP reporter; E. coli; PhoQ-PhoP variant library, together with: 10 µM Mg2+; relative to: high Mg2+ state, higher = stronger signaling): 20.9

Excerpt of the above (study 2):
GGCAGGACGGACTTCCACGTGGAACTTAGGCATTCC: 318 a.u.
TCTAGTAGGTGCGCCAGCGTGCGATGATGTGATGAG: 75.6 a.u.
TTTAGTCGATACCAACACGTGGAACAATACTCAAAT: 723 a.u.
